Results pooled from the literature.
Protocols differ between the studies behind these lines. ± gives the spread as reported.
Sequence of UniProt P10635 (whole entry, looked up): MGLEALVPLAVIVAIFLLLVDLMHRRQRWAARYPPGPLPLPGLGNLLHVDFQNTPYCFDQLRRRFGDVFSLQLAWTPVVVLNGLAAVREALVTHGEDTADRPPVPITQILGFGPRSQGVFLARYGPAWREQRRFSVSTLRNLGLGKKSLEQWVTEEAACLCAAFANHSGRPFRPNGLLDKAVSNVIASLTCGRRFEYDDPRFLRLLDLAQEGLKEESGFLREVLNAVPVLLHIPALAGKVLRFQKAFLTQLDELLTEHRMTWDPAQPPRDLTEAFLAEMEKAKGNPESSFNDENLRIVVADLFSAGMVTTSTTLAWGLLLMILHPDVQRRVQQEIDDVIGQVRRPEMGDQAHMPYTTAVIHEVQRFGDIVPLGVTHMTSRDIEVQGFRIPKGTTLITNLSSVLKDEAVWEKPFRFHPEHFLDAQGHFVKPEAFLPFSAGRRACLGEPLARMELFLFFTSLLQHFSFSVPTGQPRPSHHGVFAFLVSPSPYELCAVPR
Sequence of UniProt Q9NPD5 (whole entry, looked up): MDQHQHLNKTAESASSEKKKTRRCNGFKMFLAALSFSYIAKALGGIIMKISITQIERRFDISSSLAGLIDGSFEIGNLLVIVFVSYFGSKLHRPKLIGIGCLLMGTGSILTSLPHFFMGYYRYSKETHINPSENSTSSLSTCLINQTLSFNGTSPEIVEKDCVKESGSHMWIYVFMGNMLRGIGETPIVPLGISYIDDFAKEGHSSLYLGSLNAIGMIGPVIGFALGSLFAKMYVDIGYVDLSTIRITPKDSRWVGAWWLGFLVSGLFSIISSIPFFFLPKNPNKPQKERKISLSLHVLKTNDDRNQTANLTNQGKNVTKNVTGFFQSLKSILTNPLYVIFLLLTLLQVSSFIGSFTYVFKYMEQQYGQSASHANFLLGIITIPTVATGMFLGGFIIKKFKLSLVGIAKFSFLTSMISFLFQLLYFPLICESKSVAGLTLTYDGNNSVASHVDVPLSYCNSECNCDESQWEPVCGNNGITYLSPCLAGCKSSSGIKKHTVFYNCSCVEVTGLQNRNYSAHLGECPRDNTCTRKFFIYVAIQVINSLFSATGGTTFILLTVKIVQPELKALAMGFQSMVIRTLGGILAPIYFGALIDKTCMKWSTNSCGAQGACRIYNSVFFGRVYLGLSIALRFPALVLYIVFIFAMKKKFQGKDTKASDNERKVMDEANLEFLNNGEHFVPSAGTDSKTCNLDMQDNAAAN
Sequence of UniProt Q9UNQ0 (whole entry, looked up): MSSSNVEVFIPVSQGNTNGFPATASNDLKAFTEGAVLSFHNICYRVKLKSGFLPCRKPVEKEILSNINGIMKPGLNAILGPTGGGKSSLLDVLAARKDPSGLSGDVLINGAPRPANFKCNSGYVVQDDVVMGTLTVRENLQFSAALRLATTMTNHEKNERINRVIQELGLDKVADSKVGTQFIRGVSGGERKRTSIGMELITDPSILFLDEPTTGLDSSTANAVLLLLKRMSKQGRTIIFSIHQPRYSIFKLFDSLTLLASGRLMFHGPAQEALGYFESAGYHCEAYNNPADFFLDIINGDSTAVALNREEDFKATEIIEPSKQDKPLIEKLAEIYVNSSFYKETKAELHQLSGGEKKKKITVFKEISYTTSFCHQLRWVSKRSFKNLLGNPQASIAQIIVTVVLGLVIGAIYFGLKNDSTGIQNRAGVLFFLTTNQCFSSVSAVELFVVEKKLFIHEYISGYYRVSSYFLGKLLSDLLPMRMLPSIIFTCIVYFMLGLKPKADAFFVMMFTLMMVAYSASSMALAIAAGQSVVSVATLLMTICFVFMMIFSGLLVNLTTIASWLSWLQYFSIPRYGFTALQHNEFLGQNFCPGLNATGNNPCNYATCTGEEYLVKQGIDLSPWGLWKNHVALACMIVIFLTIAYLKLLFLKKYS

Compound	tested on	assay	system	conditions	how to read	endpoint	value
C[n+]1ccc(/C=N/NC(=O)c2cccc(C(=O)N/N=C/c3cc[n+](C)c4ccccc34)n2)c2ccccc21	MYC promoter parallel G-quadruplex DNA	UV melting		3 µM, 1 mM potassium, added: DNA 3 µM		delta Tm	25.2 °C
C=C(NC(=O)c1csc(-c2nc3c(cc2O)-c2nc(cs2)C(=O)NC(C(C)O)C(=O)NC(=C(C)OC)c2nc(cs2)C(=O)NC2c4nc(cs4)C(=O)NC(COC(=O)c4c5c6c(cccc6n4O)COC(=O)C(OC4CC(C)(O)C(N(C)C)C(C)O4)C2OC5)c2nc-3cs2)n1)C(N)=O (stereo not shown)			Sprague-Dawley rat, female, plasma	intravenous infusion, 6 mg/kg single dose		clearance	42.8 mL/min/kg
N#C[C@@H]1CC(F)(F)CN1C(=O)CNC(=O)c1ccnc2c(NC(=O)[C@H](CCCCNC(=O)CCOCCOCCOCCOCCOCCOCCNC(=O)CN3CCN(CC(=O)[O-])CCN(CC(=O)[O-])CCN(CC(=O)[O-])CC3)NC(=O)CCCc3ccc(I)cc3)cccc12.[177Lu+3]	U-87 MG tumour model		host not given, muscle	24 h, tumour-bearing		tracer uptake	0.94 %ID/g
O=C(c1ccc(OCCN2CCCCC2)cc1)c1c(-c2ccc(O)cc2)sc2cc(O[C@@H]3O[C@H](C(=O)O)[C@@H](O)[C@H](O)[C@H]3O)ccc12	SLCO1B3 (Homo sapiens, UniProt Q9NPD5)		HEK293 expressing SLCO1B3	pH 7.4		Vmax	21.2 pmol/min/mg protein
CC(C)Cc1ccc(C(C)C(=O)N[C@@H](CCCCNC(=O)CCOCCOCCOCCOCCOCCOCCNC(=O)CN2CCN(CC(=O)[O-])CCN(CC(=O)[O-])CCN(CC(=O)[O-])CC2)C(=O)Nc2cccc3c(C(=O)NCC(=O)N4CC(F)(F)C[C@H]4C#N)ccnc23)cc1.[177Lu+3] (stereo partly shown)	U-87 MG tumour model		host not given, stomach	1 h, tumour-bearing		tracer uptake	3.15 %ID/g
CNC(=O)C1CCCN(C(=O)C2CC3CCC2N3C(=O)[C@@H]2C[C@@H](O)CN2C(=O)NCc2cccc(Cl)c2F)C1 (mixture of isomers)	Cytochrome P450 2D6 (CYP2D6, Homo sapiens, UniProt P10635)	enzyme activity, inhibitor, time-dependent inhibition		1.85 µM, preincubated with NADPH		dextrorphan formation	131 ng/mL
CCN(CC)CC#CCNc1ccnc2cc(Cl)ccc12	Salmonella typhimurium	mini-Ames test	TA102	1000.0 µg/well, without S9		revertants per well	49
CNc1nc(N)nc2c1ncn2[C@@H]1O[C@H](CO[P@](=O)(O)N[C@@H](C)C(=O)O)[C@@H](O)[C@@]1(C)F	ABCG2 (Homo sapiens, UniProt Q9UNQ0)	bidirectional transport	MDCKII transfected with human BCRP	10 µM		efflux ratio	1.02 ± 0.12
CC(C)OCCOCc1ccc(OCC(O)CN(N=O)C(C)C)cc1 (stereo not shown)	Salmonella typhimurium	Ames test	TA100	5000 µg/plate, 30 % rat S9	reference: solvent control	revertant fold increase	0.8 fold
O=C1C2CC3CC1CC(C(=O)N1CCN(c4ccc([N+](=O)[O-])c5ncccc45)CC1)(C3)C2	Salmonella typhimurium	Ames test	TA100	0.05 µg/well, without S9	reference: vehicle	revertant fold increase	0.8
COc1cccc(OC)c1-c1cc(C(=O)NC2(C(=O)O)C3CC4CC(C3)CC2C4)nn1-c1ccc(C(=O)N(C)CCCN(C)C(=O)[C@H](CCCCNC(=O)[C@H](CC(C)C)NC(=O)C2OC2C(=O)O)NC(=O)CN2CCN(CC(=O)[O-])CCN(CC(=O)[O-])CCN(CC(=O)[O-])CC2)cc1C(C)C.[177Lu+3] (mixture of isomers)	HT-29 tumour model		host not given, bone	4 h, tumour-bearing		tracer uptake	0.41 %ID/g
O=C(N/N=C/c1cc[n+](Cc2ccccc2)c2ccccc12)c1cccc(C(=O)N/N=C/c2cc[n+](Cc3ccccc3)c3ccccc23)n1	hp2 hairpin duplex DNA	FRET melting		1 µM, added: ds26 10 µM		ΔTm	0.9 ± 0.2 °C
N#Cc1cccc(-c2ccc(=O)n(Cc3cccc(-c4ncc(OCC5CCN(CC(=O)N6CCN(c7ccc8c(c7)C(=O)N(C7CCC(=O)NC7=O)C8=O)CC6)CC5)cn4)c3)n2)c1 (stereo not shown)	Caco-2	transwell monolayer		2 µM, 120 min, pH 7.4, 0.1% DMSO, added: tariquidar 5 µM		Papp B-A	0.04 ± 0.01 ×10⁻⁶ cm/s

For quick reference, copied from above:
Compound	tested on	assay	system	conditions	how to read	endpoint	value
O=C1C2CC3CC1CC(C(=O)N1CCN(c4ccc([N+](=O)[O-])c5ncccc45)CC1)(C3)C2	Salmonella typhimurium	Ames test	TA100	0.05 µg/well, without S9	reference: vehicle	revertant fold increase	0.8
